# Measured values from different studies.
# Lines come from different studies, so protocols differ. Numbers after ± are the reported error.
SMILES,assay,system,conditions,terminal half-life [h]
CN[C@H]1C(=O)N[C@@H]2Cc3ccc(cc3)Oc3cc4cc(c3O[C@@H]3O[C@H](C(=O)O)[C@@H](O)[C@H](O)[C@H]3NC(=O)CCCCCCCCC(C)C)Oc3ccc(cc3Cl)[C@@H](O)[C@@H]3NC(=O)[C@H](NC(=O)[C@@H]4NC(=O)[C@@H](NC2=O)c2cc(cc(O)c2Cl)Oc2cc1ccc2O)c1ccc(O)c(c1)-c1c(O[C@H]2O[C@H](CO)[C@@H](O)[C@H](O)[C@@H]2O)cc(O)cc1[C@@H](C(=O)NCCCN(C)C)NC3=O,LC-MS/MS non-compartmental,"healthy Japanese subjects, plasma","intravenous infusion, 1000 mg, 30 min infusion, sampling to day 28, arithmetic mean",193
O=C1CCc2ccc(OCCCCN3CCN(c4cccc(Cl)c4Cl)CC3)cc2N1,,"healthy Japanese men, CYP2D6 IM, plasma","oral, 3 mg aripiprazole single, with: paroxetine 20 mg/day",129 ± 21.3
O=C(c1cccnc1-c1ccncc1)N1CCC(O)(Cc2ccccc2)CC1,,"healthy subjects, plasma","oral, 300 mg twice daily, day 1",3.49
CC(C)(Sc1ccncc1-c1ccc(C#N)c2ccccc12)C(=O)O,,"male, plasma","oral, 15 mg, severe renal impairment, fasted",22
COc1cc2c(cc1OC)CN(CCc1ccc(NC(=O)c3cc(OC)c(OC)cc3NC(=O)c3cnc4ccccc4c3)cc1)CC2,,"human, plasma","intravenous infusion, 4 mg/kg",43
CS(=O)(=O)n1cc2c(n1)CN([C@H]1CO[C@H](c3cc(F)ccc3F)[C@@H](N)C1)C2,,"healthy Japanese men, plasma","oral, dose not given",> 100
N[C@@H](CC(=O)N1CCc2c(nc(C(F)(F)F)nc2C(F)(F)F)C1)CN1CC(F)(F)CCC1=O,,healthy Korean male volunteers,"oral, 50 mg, day 6, alone, mean",8.77
O=C(Nc1ccc(OC(F)(F)F)cc1)N[C@H]1CC[C@H](Oc2ccc(C(=O)O)cc2)CC1,,"horses, plasma","intravenous, 0.3 mg/kg",13 ± 0.5
COc1cccc(N2CCN(C3=Nc4c(F)cccc4[C@H](CC(=O)O)N3c3cc(C(F)(F)F)ccc3OC)CC2)c1,UHPLC-MS/MS,"healthy women, plasma","intravenous infusion, 480 mg single dose, 60 min infusion, HPβCD formulation",13 ± 4.1
CCCOc1ccc([C@H]2CNC(=O)N2c2ccc3[nH]cnc3c2)cc1,,"non-elderly adults, fasted, plasma","oral, 20 mg twice daily, day 11, oral solution, geometric mean",2.36
NCCCC[C@@H]1NC(=O)[C@@H](Cc2c[nH]c3ccccc23)NC(=O)[C@H](c2ccccc2)NC(=O)[C@@H]2C[C@@H](OC(=O)NCCN)CN2C(=O)[C@H](Cc2ccccc2)NC(=O)[C@H](Cc2ccc(OCc3ccccc3)cc2)NC1=O,,"healthy male volunteers, plasma","subcutaneous, 600 µg",31.7 ± 6.5

# Some of these lines once more:
SMILES,assay,system,conditions,terminal half-life [h]
COc1cc2c(cc1OC)CN(CCc1ccc(NC(=O)c3cc(OC)c(OC)cc3NC(=O)c3cnc4ccccc4c3)cc1)CC2,,"human, plasma","intravenous infusion, 4 mg/kg",43
